# Published values pooled from the literature.
# A part holds a random share of what one study measured. Positions count from the first letter of the parent shown.

# Series 1
# Target: Histone acetyltransferase KAT6A, winged helix 1, GST fusion (KAT6A, Homo sapiens, UniProt Q92794, residues 1-85)
# Method: protein binding microarray
# Molecule type: double-stranded DNA, one strand shown
# Matrix: in vitro
# Tested at: not given
# Setting: 8-mer, flanks averaged, mean of 2 arrays, mostly near background
# Relative to: not given
# Direction: higher = stronger binding
# Residues (chain): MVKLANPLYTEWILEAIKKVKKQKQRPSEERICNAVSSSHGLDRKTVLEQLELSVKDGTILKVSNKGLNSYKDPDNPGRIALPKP
Sequence,E-score
CACAACAC,-0.0785
GTAGACAA,-0.0452
AACCGTCC,0.138
GGGTAACA,-0.0389
ACTGGTAG,-0.227
CCAGTGAC,-0.184
AATTCTGA,-0.152
GTAGCTCA,-0.0473
ACACGGCA,0.324
ATGCCAAA,-0.31
CAAGGCGG,0.224
GCACCCTA,-0.0967
AAGCATTA,-0.122
CCCAACCA,-0.2
GGATCAGA,-0.178
AGACACCG,-0.0526
CATTTCCC,0.0291
AGATTGAT,0.0192
AAGGCCTA,-0.261
GCAAAATA,-0.166
AATATATT,-0.0397
TAGTACTA,-0.247
AACTGAGG,-0.121
CGTAGCTA,-0.129
ATATATAT,-0.0565

# Series 2
# Target: Ras GTPase-activating protein-binding protein 1, full length (G3BP1, Homo sapiens, UniProt Q13283)
# Chain of UniProt Q13283 (whole entry, looked up): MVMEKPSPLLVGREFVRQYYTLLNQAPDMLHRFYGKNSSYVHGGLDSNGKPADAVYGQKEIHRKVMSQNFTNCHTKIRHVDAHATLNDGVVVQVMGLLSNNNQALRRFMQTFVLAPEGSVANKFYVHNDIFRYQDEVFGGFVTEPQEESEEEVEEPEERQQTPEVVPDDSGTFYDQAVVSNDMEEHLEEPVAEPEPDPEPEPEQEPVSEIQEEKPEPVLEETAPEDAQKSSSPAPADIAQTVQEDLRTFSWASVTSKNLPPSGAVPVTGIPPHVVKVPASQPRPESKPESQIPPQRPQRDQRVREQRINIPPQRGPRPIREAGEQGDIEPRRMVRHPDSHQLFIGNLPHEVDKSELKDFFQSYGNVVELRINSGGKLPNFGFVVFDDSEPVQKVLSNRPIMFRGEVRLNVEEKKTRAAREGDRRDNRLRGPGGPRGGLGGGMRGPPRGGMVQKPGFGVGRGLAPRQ
# Method: RNA Bind-n-Seq
# Molecule type: RNA
# Matrix: in vitro
# Tested at: 200 nM
# Setting: whole 134-nt RNA, ends assumed
# Together with: 150 mM KCl
# Relative to: input library
# Direction: higher = stronger binding
# Shared flanks, not repeated: GGGAGUUCUACAGUCCGACGAUC … UGGAAUUCUCGGGUGUCAAGG
Sequence,log2 enrichment
GCAGGAAGUAAAAACAAAUGGAAAUGCUUCGGAUAGUGGCAGGGGUGGGGGUUGCUAAGGAAAGGGUGUGAUGGGAGUGGGUAAAGAGUU,0.886
CACAGACAACACGCACCCACACAGACACAGAGGGAAGGGGUAAAGAUGGGGACAGGGUGCACAGCAGGGCGGGGUAGGACCCCAGCCCCU,1.26
GUCCUGUGCUACACAUCGUAUGUACCGAAUCGGAAAAAAAGGAAAAAAAGGAAAAAGGAAAGUAUUAUGUUACGCCGUUCGGAUCUGCAC,-0.829
AAGUCCUGUGCUACACAUCGUAUGUACCGAAUCGGGAAAGGGAAAGGGUUUUUGGGAAAGUAUUAUGUUACGCCGUUCGGAUCUGCACUU,-0.0253
CUGUGCUACACAUCGUAUGUACCGAAUCGGGGCCCCCCCGGGCCCCCCCGGGCCCCCCCGGAAAGUAUUAUGUUACGCCGUUCGGAUCUG,-0.751
CACAGACAACACGCACCCACACAGACACAGAGGGAAGGGGUUGGGAUGGGGACAGGGUGCACAGCUGGGCGGGGUAGGACCCCAGCCCCU,1.8
UCAAGUCCUGUGCUACACAUCGUAUGUACCGAAUCGGAAAGGAAAGGGAAAGGGAAAGUAUUAUGUUACGCCGUUCGGAUCUGCACUUCC,-0.749
UCCUCAAGUCCUGUGCUACACAUCGUAUGUACCGAAUCGGUGGGUGGUGGGAAAGUAUUAUGUUACGCCGUUCGGAUCUGCACUUCCAGC,-0.0849
AGUCCUGUGCUACACAUCGUAUGUACCGAAUCGGCCCCGGGCCCCGGGGCCCCGGGGAAAGUAUUAUGUUACGCCGUUCGGAUCUGCACU,-1.25

# Series 3
# Target: CCNA2, cyclin fold, Cln2 fusion (human)
# Method: yeast growth competition, sequencing
# Matrix: yeast
# Setting: strong parent motif
# Relative to: not given
# Direction: higher = stronger binding
# Parent: RBL2 docking peptide (human); STTRRRLFVENDS; partner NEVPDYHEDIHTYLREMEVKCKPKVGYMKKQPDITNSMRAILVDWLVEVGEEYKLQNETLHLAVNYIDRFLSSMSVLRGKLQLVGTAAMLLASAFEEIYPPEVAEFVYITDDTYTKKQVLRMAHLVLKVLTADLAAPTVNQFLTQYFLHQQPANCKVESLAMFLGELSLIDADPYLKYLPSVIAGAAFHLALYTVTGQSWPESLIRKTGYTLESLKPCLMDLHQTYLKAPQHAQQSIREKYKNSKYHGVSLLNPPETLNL
Variant,normalised enrichment score
STTRRRLFVENDR [S13R],5.89
STTRRRPFVENDS [L7P],-0.253
STTRRRLFVENDT [S13T],5.5
GTTRRRLFVENDS [S1G],5.52
STTRCRLFVENDS [R5C],1.68
STTRRKLFVENDS [R6K],5.05
STTRRRLFVSNDS [E10S],5.63
STTRRRLFVYNDS [E10Y],4.02
STTSRRLFVENDS [R4S],1.46
STTRRRLFVENDA [S13A],6.05
STTRRRNFVENDS [L7N],0.124
STTRRRLFVESDS [N11S],5.93
STTRRRLFVEQDS [N11Q],5.91
STTRRRGFVENDS [L7G],-0.887
STTRRRLFVHNDS [E10H],4.73
STTRRRLMVENDS [F8M],1.37
STTFRRLFVENDS [R4F],2.11

# Series 4
# Target: RNA binding protein fox-1 homolog 2, RRM domain, GST-SBP tag (RBFOX2, Homo sapiens, UniProt O43251-10, residues 100-194)
# Method: RNA Bind-n-Seq
# Molecule type: RNA
# Matrix: in vitro
# Tested at: 365 nM
# Setting: natural RNA segment, single round, ends assumed
# Relative to: no-protein control
# Direction: higher = stronger binding
# Shared flanks, not repeated: GGGAGUUCUACAGUCCGACGAUC … UGGAAUUCUCGGGUGCCAA
# Residues (chain): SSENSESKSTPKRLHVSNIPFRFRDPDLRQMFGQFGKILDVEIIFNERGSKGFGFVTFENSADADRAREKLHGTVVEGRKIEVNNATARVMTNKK
Sequence,RBNS enrichment (R)
UGGAACUUUCCAUGACUGGAUCACAGGGAAAAACCGACCGAGCUCAGGAAGCCUAAUCCAGGUGGUAACCACAGAAGGAAGGACGGAACUCACCCCAGCAUAUUUUUAGG,0.701
UUUUUUUUCCUCUUAACUCUGUCUGCUCUUAAAGCCAGGCAACCCAGUUUGGUCUCAGGCAUAGCCUGAGCAGAUCUUAGUUUUGCCCCCACCACCAUAGUUUUGUGCUA,0.26
UUCCUCUGGAGUGAUGCUGUGCCAUGCUGGUCUUUGCUUCUAGUAAUAAAACAUCAAAUUAGGUUUGGAGGGAACUUUGAUCUUCCUAAGAAUUAAAGUUGCCAAAUUAU,0.492
UCCUAGGUGACAUUUUAGAAUUAAUACUUAAGUGUUGUUAAAUGGGGACAUGGAGCUUAAUCAUUGGUCAGGUUUGAAGUCUUUUGAAGCUAAGUAAUUUUAUUUAAUAU,0.662
UAAUCUCUAUGUACAUAUCUAUCUACCUGUAACCGUAGAUAGGUAUCUAGAUAGAUACCAAGCUUUUAAGCUCUGGGCUACUAUGCAUCAUUAUUGGGUCUCUGCCUUAA,0.627
UGUCUCGUGGGGUGGCAUCGGGGCUGCGGGGUGGGGACCCCAAGGCUUUCUGGGGCAGACCCUUGUCCUCUGGGAUGAUGGGCACUGCUAUCCACAGUCUCUGCCAGUUG,0.295
CCCUGUAGCUGCAAGUAGCAGGGCAGAGACCCCAGCAGGGCCUCCAGCAGCCCUCAUGGCCCCUUUCCUGUACCAAGCACCCAGCUCUCCUCUUGUUCUGAAAGGGAUUU,0.298
UUUGUGUAAUUGGUUUGAAAAACAGUGAAAUGGGUAAACGCAAAACUUUUGUACUUUAUUACGAGUAAAGUGUAAUGAGUACUGUGGAAACCAAAUUUGAAUACUGCAAA,0.395

# For quick reference, copied from above (series 1):
Sequence,E-score
GCACCCTA,-0.0967
AAGCATTA,-0.122
CCCAACCA,-0.2
GGATCAGA,-0.178
AGACACCG,-0.0526
CATTTCCC,0.0291
AGATTGAT,0.0192
AAGGCCTA,-0.261
